Assay results pooled from the literature.
Protocols differ between the studies behind these lines. Numbers after ± are the reported error.
Sialidase-2: Sialidase-2 (Homo sapiens, UniProt Q9Y3R4)
Chain of UniProt Q9Y3R4 (whole entry, looked up): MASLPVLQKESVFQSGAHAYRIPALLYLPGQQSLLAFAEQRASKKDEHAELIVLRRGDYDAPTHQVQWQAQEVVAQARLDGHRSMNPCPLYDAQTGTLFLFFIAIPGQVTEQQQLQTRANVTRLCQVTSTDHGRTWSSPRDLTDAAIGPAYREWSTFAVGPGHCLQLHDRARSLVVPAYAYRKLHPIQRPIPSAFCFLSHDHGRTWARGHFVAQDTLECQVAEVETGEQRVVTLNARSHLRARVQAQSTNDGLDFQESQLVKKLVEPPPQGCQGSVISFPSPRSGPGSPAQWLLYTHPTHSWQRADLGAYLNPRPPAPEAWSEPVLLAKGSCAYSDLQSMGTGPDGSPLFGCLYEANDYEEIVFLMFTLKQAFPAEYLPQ
Chain of UniProt C9K1X5 (whole entry, looked up): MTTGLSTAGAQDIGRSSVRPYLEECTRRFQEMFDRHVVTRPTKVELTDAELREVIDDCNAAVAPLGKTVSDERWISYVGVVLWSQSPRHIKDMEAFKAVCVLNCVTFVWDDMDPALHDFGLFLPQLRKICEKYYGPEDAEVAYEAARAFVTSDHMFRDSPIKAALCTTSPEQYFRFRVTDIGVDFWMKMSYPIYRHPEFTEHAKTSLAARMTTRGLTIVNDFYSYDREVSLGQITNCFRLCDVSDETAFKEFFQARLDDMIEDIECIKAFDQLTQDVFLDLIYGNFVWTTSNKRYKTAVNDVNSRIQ
Chain of UniProt P52790 (whole entry, unmodified, looked up): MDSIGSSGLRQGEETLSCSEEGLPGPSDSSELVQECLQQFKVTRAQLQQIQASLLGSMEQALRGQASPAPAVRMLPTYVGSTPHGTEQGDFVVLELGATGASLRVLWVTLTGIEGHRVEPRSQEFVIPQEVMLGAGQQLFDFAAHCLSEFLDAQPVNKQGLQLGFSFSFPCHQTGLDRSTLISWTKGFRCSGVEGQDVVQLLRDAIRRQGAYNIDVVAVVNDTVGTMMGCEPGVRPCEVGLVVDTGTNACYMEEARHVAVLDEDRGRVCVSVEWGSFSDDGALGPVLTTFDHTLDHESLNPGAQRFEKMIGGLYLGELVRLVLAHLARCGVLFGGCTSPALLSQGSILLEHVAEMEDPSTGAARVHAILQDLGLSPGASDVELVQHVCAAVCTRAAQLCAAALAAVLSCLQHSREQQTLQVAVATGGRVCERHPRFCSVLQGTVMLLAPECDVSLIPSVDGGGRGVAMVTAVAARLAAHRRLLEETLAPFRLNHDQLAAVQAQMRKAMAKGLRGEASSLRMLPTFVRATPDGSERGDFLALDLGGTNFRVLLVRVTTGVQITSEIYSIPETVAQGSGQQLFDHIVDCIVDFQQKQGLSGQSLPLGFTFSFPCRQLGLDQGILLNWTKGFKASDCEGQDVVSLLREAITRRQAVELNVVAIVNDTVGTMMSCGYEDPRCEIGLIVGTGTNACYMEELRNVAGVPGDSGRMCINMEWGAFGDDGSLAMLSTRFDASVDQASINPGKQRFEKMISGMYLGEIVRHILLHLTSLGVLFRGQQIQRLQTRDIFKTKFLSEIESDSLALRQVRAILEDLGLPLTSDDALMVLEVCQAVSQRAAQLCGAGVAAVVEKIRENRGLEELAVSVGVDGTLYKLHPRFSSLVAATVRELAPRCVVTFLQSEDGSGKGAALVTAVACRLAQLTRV

`COCCN(C)C(=O)c1ccc(C2CCCCC2)cc1` gave a hepatic clearance of 26 mL/min/kg (liver microsome stability; dog liver microsomes; 1 µM).
With `[N-]=[N+]=NCC(=O)N[C@H]1[C@H]([C@H](O)[C@H](O)CO)O[C@@](O[C@H]2[C@@H](O)[C@@H](CO)O[C@@H](Oc3ccc([N+](=O)[O-])cc3)[C@@H]2O)(C(=O)O)C[C@@H]1O` the Km was 1000 ± 200 µM (Sialidase-2; substrate; 10 min, pH 5.0, 37 °C).
`Nc1c(S(=O)(=O)O)cc(Nc2cccc(S(=O)(=O)CCOS(=O)(=O)O)c2)c2c1C(=O)c1ccccc1C2=O` gave a Km of 19 µM (alternative ancestral dye-decolorizing peroxidase; peroxidase activity, substrate, steady-state kinetics; 25 °C, pH 3 ABTS, 4 others).
`O=C(Cc1cccs1)N[C@@H]1C(=O)N2C(C(=O)O)=C(/C=C/c3ccc([N+](=O)[O-])cc3[N+](=O)[O-])CS[C@H]12` has a Km of 7.6 ± 1.5 µM (beta-lactamase RAD-1 (Riemerella anatipestifer); substrate, continuous spectrophotometric hydrolysis; 30 °C).
`Nc1ncnc2c1ncn2[C@@H]1O[C@H](COP(=O)(O)OP(=O)(O)OP(=O)(O)O)[C@@H](O)[C@H]1O` has a Km of 1900 ± 100 µM (Hexokinase-3 (HK3, Homo sapiens, UniProt P52790, A499V); substrate; mutant A499V, together with: glucose 0.5 mM).
For `O=C(CO)NC1C(O)CC(OCC2OC(Oc3ccc([N+](=O)[O-])cc3)C(O)C(O)C2O)(C(=O)O)OC1C(O)C(O)CO` (stereo not drawn), the Km was 2200 ± 100 µM (Sialidase-2; substrate; 10 min, pH 5.0, 37 °C).
`CC(C)=CCC/C(C)=C/CC/C(C)=C/CC/C(C)=C/COP(=O)(O)OP(=O)(O)O` gave a Km of 12.3 µM (CotB2 (Streptomyces melanosporofaciens, UniProt C9K1X5); substrate, pyrophosphate release; together with: MgCl2 2.5 mM).
`O=C(CO)NC1C(O)CC(OC2C(O)C(CO)OC(Oc3ccc([N+](=O)[O-])cc3)C2O)(C(=O)O)OC1C(O)C(O)CO` (stereo not drawn) has a Km of 1000 ± 100 µM (Sialidase-2; substrate; 10 min, pH 5.0, 37 °C).
`C[C@@H](O)[C@H]1C(=O)N2C(C(=O)O)=C(S[C@@H]3CN[C@H](C(=O)Nc4cccc(C(=O)O)c4)C3)[C@H](C)[C@H]12` gave a Km of 20 ± 1.9 µM (beta-lactamase RAD-1 (Riemerella anatipestifer); substrate, continuous spectrophotometric hydrolysis; 30 °C).
`CCCCCCCCCCCCCCCC(=O)SCCNC(=O)CCNC(=O)[C@H](O)C(C)(C)COP(=O)(O)OP(=O)(O)OC[C@H]1O[C@@H](n2cnc3c(N)ncnc32)[C@H](O)[C@@H]1OP(=O)(O)O` gave a Km of 205 ± 43.2 µM (glycerol-3-phosphate acyltransferase; substrate; 3T3-L1 preadipocytes, total membranes; pH 7.5, room temperature, together with: [3H]glycerol-3-phosphate).
`CO/N=C(\C(=O)N[C@@H]1C(=O)N2C(C(=O)O)=C(COC(C)=O)CS[C@H]12)c1csc(N)n1` has a Km of 210 ± 8.9 µM (beta-lactamase RAD-1 (Riemerella anatipestifer); substrate, continuous spectrophotometric hydrolysis; 30 °C).
`O=C(NCC1CCOCC1)c1ccc(C2CCCCC2)cc1` gave a hepatic clearance of 19 mL/min/kg (hepatocyte stability; cryopreserved human hepatocytes; 1 µM).
For `OO`, the Km was 16 µM (alternative ancestral dye-decolorizing peroxidase; peroxidase activity, substrate, steady-state kinetics; 25 °C, pH 3 ABTS, 4 others).
`O=P(O)(O)OC[C@H](O)CO` gave a Km of 29.4 ± 1 µM (GPAT (Gat1 and Gat2), yeast; substrate; Saccharomyces cerevisiae, BY4741 wild type, total membranes; together with: 16:0 acyl-CoA 50 µM).
For `Cn1cc(-c2ccc(-c3cncc(Cl)c3N3CCC4(CCNC4=O)CC3)cc2)cn1`, “log2 fold change” read 1.56 (COLO 205; gene expression, microarray, item: IFI6 mRNA; concentration not given, 2 h; reference: untreated cells).

For quick reference, copied from above:
`CO/N=C(\C(=O)N[C@@H]1C(=O)N2C(C(=O)O)=C(COC(C)=O)CS[C@H]12)c1csc(N)n1` has a Km of 210 ± 8.9 µM (beta-lactamase RAD-1 (Riemerella anatipestifer); substrate, continuous spectrophotometric hydrolysis; 30 °C).
`C[C@@H](O)[C@H]1C(=O)N2C(C(=O)O)=C(S[C@@H]3CN[C@H](C(=O)Nc4cccc(C(=O)O)c4)C3)[C@H](C)[C@H]12` gave a Km of 20 ± 1.9 µM (beta-lactamase RAD-1 (Riemerella anatipestifer); substrate, continuous spectrophotometric hydrolysis; 30 °C).
